# Published values of several laboratories.
# Each line is one published result; not all experiments were run side by side. ± marks the error that the study gave.
Compound,test,system,conditions,quantity,result
[Cl][212Pb][Cl],,"athymic mice, C4-2 xenograft, blood","intravenous, 2 h, 212Pb-labelled",tissue uptake,4.47 ± 0.89 %ID/g
COc1ccc2nc3cc(Cl)ccc3c(Nc3cc(CN4CCCC4)c(O)c(CN4CCCC4)c3)c2n1,,"mouse, blood","intraperitoneal, 28 mg/kg",plateletcrit,0.08%
CCN1[C@@H](C(=O)NC23CCC(C(=O)O)(CC2)CC3)[C@H](c2cccc(Cl)c2F)[C@]2(C(=O)Nc3cc(Cl)ccc32)C12CCCCC2,,patients with advanced solid tumours,"oral, 150 mg",Fatigue incidence,12.5%
COc1cc2c(Oc3ccc4[nH]c(C)cc4c3F)ccnc2cc1OCC1(N)CC1,,paediatric recurrent refractory sarcoma,10 mg,grade 1 or 2 Nausea,0%
CCN1CCN(Cc2ccc(Nc3ncc(F)c(-c4cc(F)c5nc6n(c5c4)[C@H](C)CCC6)n3)nc2)CC1,,advanced solid tumour patients,"dose not given, Phase Ia monotherapy","Hyperglycemia incidence, any grade",29.2%
COc1ccc(F)cc1C(=O)NCc1ccc(-c2nn([C@@H](C)C(F)(F)F)c(N)c2C(N)=O)cc1,,"human, plasma","oral, 200 mg once daily",AUCtau,114 µg·h/mL
COc1ncccc1-c1cnn2ccc(N3CCN(C(=O)OC(C)C)CC3)nc12,,"mouse nerve ligation model, plasma","oral, 10 mg/kg, 120 min after last dose, repeat dosing day 2",drug concentration,2.4 µM
NCCCC[C@@H]1NC(=O)[C@@H](Cc2c[nH]c3ccccc23)NC(=O)[C@H](c2ccccc2)NC(=O)[C@@H]2C[C@@H](OC(=O)NCCN)CN2C(=O)[C@H](Cc2ccccc2)NC(=O)[C@H](Cc2ccc(OCc3ccccc3)cc2)NC1=O,,healthy human volunteers,1950 µg twice daily,subjects with discoloured faeces,32%
CC(C)CC(=O)OC[C@H]1O[C@@](C#N)(c2ccc3c(N)ncnn23)[C@H](O)[C@@H]1O,,monkey plasma,9 µM,fraction unbound,0.317
OCCc1ccc(O)c(O)c1,,human CSF,"concentration not given, mean",CSF concentration,not detected
CC(C)C[C@H](NC(=O)[C@H](CCC1CCCCC1)NC(=O)[C@@H]1CCCN1C(=O)c1ccc(F)cc1)C(=O)NC(C)(C)C(=O)N[C@@H](CC(C)C)C(=O)N[C@@H](CC(C)C)C(=O)NC(C)(C)C(=O)NC(C)(C)C(=O)NCCC(=O)NC1(CN(C)C)CCC1,,Sprague-Dawley rat female,"7 days, dose escalation",tolerated dose,300 mg/kg
COc1ccc(-c2c(-c3ccc(C#N)c(F)c3)nc(N3CCC(N)CC3)n(C)c2=O)cc1F,measured: Pyrexia,human patients,"oral, 60 mg, dose expansion",serious adverse event incidence,0%
CO[C@H]1C[C@@H]2CC[C@@H](C)[C@@](O)(O2)C(=O)C(=O)N2CCCC[C@H]2C(=O)O[C@H]([C@H](C)C[C@@H]2CC[C@@H](OC(=O)NCCOCCOCCOCCOCCOCCOCCOCCOCCC(=O)N3CCc4cc(Cn5nc(-c6ccc7oc(N)nc7c6)c6c(N)ncnc65)ccc4C3)[C@H](OC)C2)C[C@@H](O)[C@H](C)/C=C(\C)[C@@H](O)[C@@H](OC)C(=O)[C@H](C)C[C@H](C)/C=C/C=C/C=C/1C,"phase 1 dose escalation, measured: mucositis",advanced solid tumour patients,"intravenous, 8 mg weekly, any grade",dose-reducing adverse events,0%
C[C@@H](NC(=O)N1C(=O)[C@H](Cc2ccnc(N)c2)[C@H]1C(=O)O)C1CCCCC1,,healthy adult Chinese volunteers,"continuous intravenous infusion, 1.0 mg/kg/h, 5-day infusion, CTCAE 5.0 grading",drug-related decreased neutrophil,0%

# Repeated from above:
Compound,test,system,conditions,quantity,result
CCN1CCN(Cc2ccc(Nc3ncc(F)c(-c4cc(F)c5nc6n(c5c4)[C@H](C)CCC6)n3)nc2)CC1,,advanced solid tumour patients,"dose not given, Phase Ia monotherapy","Hyperglycemia incidence, any grade",29.2%
